Measured values pooled from the literature.
A part holds a random share of what one study measured.

Sample 1
Target: RNA binding protein fox-1 homolog 2, RRM domain, GST-SBP tag (RBFOX2, Homo sapiens, UniProt O43251-10, residues 100-194)
Technique: RNA Bind-n-Seq
Form: RNA
Medium: in vitro
Tested at: 365 nM
Notes: natural RNA segment, single round, ends assumed
Reference: no-protein control
Reading: higher = stronger binding
Constant ends, left off below: GGGAGUUCUACAGUCCGACGAUC … UGGAAUUCUCGGGUGCCAA
Residues (chain): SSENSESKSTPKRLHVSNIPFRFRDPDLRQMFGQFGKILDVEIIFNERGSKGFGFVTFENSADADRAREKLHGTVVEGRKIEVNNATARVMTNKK
Sequence	RBNS enrichment (R)
CCUGACAGAUCCCACCUGCCUGUCCACUGCCCAUGACUGAGCCCAGCCCCAGCCCGGGUCCAUUGCCCACAUUCUCUGUCUCCUUCUCGUCGGUCUACCCCACUACCUCC	0.757
AACCACUACAAAGAGAUAACACUGUACGGGGACUGCCAGAUCUUCUGUCCUAGGGCAGUUUUAAUCAAUGUUUUCUAGGGAUUAGGAAGAAGUGUAUAAUAUUGUAAAAC	0.593
CUGAAGCCAGGCGGGGGUCUGCUGGAGGAUUCCAACAGAGAGUAUUUCCUCCACUGUACAAUGUCACAGACUAUCUCUAUCAUCAUUGCUUUGUGGCUGUUUCUGUUUUU	0.387
UAGUUUAGUGGCAGUGGGAAUCUUUGGACUUCAUUUACCUCUCUCAUUAUUUCUAUUACCAUGGAUAAAAAAGUCAGCUGCUACGUUGAUAUCCCUUCUAUGAGCACAUU	0.63
AUGCUGCAUUUCUUUGUUUUUAACACCUGGUUUUAUAGGUUCUCUUUCGUUUGUUAAGAAACUGGAUUCUUUUCUCCUAACCAGUGCUUAAUUUGUGUUUUUGGAUUUUC	1.27
UGUUGGAAAUAAAACACGUCCUAGCUGAACCCUUACUGUCCAGGAGGUUCCGUGUGGAGGUGGCACUGGGCCGGGCCUCCCUCUCAGGCUCCUUUGCUGCCCACUUGUAA	0.281
CCAGAAGGCAGCUGGAGCAGGGCCUGGGAGCCACAGCAGGGGUAGCUUGAGUUCUGUGCUCAGCCUCUGCAGGGGAUGUCAAACUCAGUAUGGGGUUUGUGCUAUGUGGA	1.19
UGGUAGUGGUCUGCCGUGCAGGGGAUGCCUGCUAUGCAGGUGAUGCCCUCCCAGGAUCUAUUCCUGGUGGGCACUGCUGUGUCUCCCCCAGAGUGGCACUCAAAGUACUA	0.237
GAUUGAACAUAAUCCUCUUGGGACUUCACGUUCUCAUUAUUUGUAUGUCUCCGGGGUCACGCAGAGCCGUCAGCCACCACCCCAGCACCCGGCACAUAGGCGUCUCAUAA	0.655
GCUCCCCAGACCCGCUCUGUUCCGUUGCUGUUAGAACAGUAGACUACUGACCGCUAUAGAGCAGAUACUCUGAGGGCCGACCCUCGCCUUUUCAUAGACAGACGAGGCAA	0.218
UGUGCCAAAAAUGUGUUUUCAAAGAAAAUCUUAUUUUCAUACUCAAGACUUUGUACCGUCACUCAUUUGUAUAAGUGCGCUUCGUCACUGCACGGGCCCUGCUCCUGCAA	0.285
UGAUCAUGUACCUUUUCAAUAAGGGGAGAUAGUAUCUUUAAAGUCAAUGUCUAGCCAAGAGUUUAGUUAAUGAAGAAUUAAACUGCACUGUUGAUCGGUGCUUUCUGUAA	0.386

Sample 2
Target: RING finger protein unkempt homolog, zinc fingers 1-6, GST-SBP tag (UNK, Homo sapiens, UniProt Q9C0B0, residues 30-357)
Technique: RNA Bind-n-Seq
Form: RNA
Medium: in vitro
Tested at: not given
Notes: RNA with constant flanks, ends assumed
Reference: input RNA pool
Reading: higher = stronger binding
Constant ends, left off below: GGGAGUUCUACAGUCCGACGAUC … CAACAGAGGAUUGAGCAUCA
Residues (chain): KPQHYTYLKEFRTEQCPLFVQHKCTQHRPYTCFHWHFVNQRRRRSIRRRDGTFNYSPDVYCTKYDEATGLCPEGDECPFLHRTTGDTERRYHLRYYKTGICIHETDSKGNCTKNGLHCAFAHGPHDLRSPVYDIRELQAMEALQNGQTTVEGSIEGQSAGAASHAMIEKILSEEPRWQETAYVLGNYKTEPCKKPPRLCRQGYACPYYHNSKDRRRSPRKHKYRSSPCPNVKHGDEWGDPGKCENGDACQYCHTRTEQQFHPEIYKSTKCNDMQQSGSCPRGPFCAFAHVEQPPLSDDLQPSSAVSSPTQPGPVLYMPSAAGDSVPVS
Sequence	bound/input enrichment [ratio]
GAGUCUGGGUUCAGGGAGCCCGUGCUGGAUGCCAAGUCGGAGGUCACGGGCCAGCUUACCGAUUUUCAGUGGAAACUGGGCAUGGCUGUGAGCUCUGACAGCUGCAGAUCUCUCAAGUAU	0.0847
AUAUAGACCUAUGAUGUACAGGUACAACAUGUAUAGGUUACGUAGAUAUUAUGAGAAAUUUCCGUUUAUUGUGAGUACUCCAGUUGCUUUAAAAACCACCAGGGUGAUUUGCUGCUGGCU	2.39
GAGUAGUUGAUAGUUGCACUCCCAGUCAUUGAAUUGCUUCUGUGUUUCCCUGUAGGUCCACCGUAACCCUUUGUCAGUCUUACACAUUUGUAAGGACCCUGCAAGACAGCAACAACGACU	0.279
AUGGGUGGAUUAUUUUCUCGAUGGAGGACAAAACCUUCAACUGUAGAAGUUCUAGAAAGUACCGAUAAGGAAAUUCAAGCAUUGGAAGAAUUUAGGGAAAAAAAUCAGAGAUUACAAAAA	0.548
AGGGCCGCUCCUUCACGCCGGAGACAGGCGGGCCGCCGGUUGCGCUACCUGCCUACUGGCCGCUUUCCCUUCCUCCUCUUGCUGCUGCUGCUCUGCAUCCAGCUCGGGGGCGGACAGAAG	0.119
CGACUCGGGGACGGCCUGGGUGCUGCCCUGGGCCCGGGGAACAGAACACACAUCUGGCUUUUUGUCCGAGGUCUUCAUGGAAAGAGUGGUACAUGGUGGGAUGAGCAUCUUUCUGAAGAA	0.189
AAGUUUGUACCCCUGUCCUUCCCUUUACGCCACUAGUGUGUAGGCAGAUGUCUGAGUCCCCCGGUGGUUUCUAGGAUUGAUAGCAAUUAGCUUUGAUGAACCCAUCCCAGGAAAAAUAAA	0.633
CACUGGGUCUACUAUCUGUAAAAAAUAUACAUAUAAAUAUAUAUAUACUGUUUGUUUAAAACCGAGUAUUUUUAUUUCAUUCCUUAACUCAUCAUCACAGCAGUGGUAUUGCACUUCAGA	0.632
ACUUGCUGUCUCUUAGAGGCUGAGCUUCAUUUCUAUGAGCAAAGAGCUCAUUUAGCAAUGCCGUUAUUUCAGUAUUUAUUUCUAUUAUGGAAUCCCUGGGGUUCAGAAUGUAACUUUGUA	2.8
GGGGUGGACCUCUUUCUUAAUGUCCAGUGUCCUAUGUCAUAAGAUUCGGUGCAAUAAGUAUUCCGACCAGCAAUAAAUACUCAGCUUGGAGAUCAUCAUGAUCUUUGUGGGUAGCAUAUC	0.0899
AAAAAAAGAAUAAAAAUCAGCCAUUUUCAACAAUUUAUAUUAUUUUUAAAAAUAAAUUUCACCCGUGCAUGGUUUUACAAUGGGAGAGAAUGCAACAGGGUGGUACAAAGACACACCGUG	2.17

Sample 3
Target: Histone acetyltransferase KAT6A, winged helix 1, GST fusion (KAT6A, Homo sapiens, UniProt Q92794, residues 1-85)
Technique: protein binding microarray
Form: double-stranded DNA, one strand shown
Medium: in vitro
Tested at: not given
Notes: 8-mer, flanks averaged, mean of 2 arrays, mostly near background
Reference: not given
Reading: higher = stronger binding
Residues (chain): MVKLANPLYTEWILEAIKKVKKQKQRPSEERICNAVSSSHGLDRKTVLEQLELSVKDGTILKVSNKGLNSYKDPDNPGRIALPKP
Sequence	E-score
CTTTCGGC	0.00564
TCTTGTAA	-0.158
ACACTTGC	-0.00196
AGCGGCCG	0.454
ACAGTCTG	-0.179
CTTCACCA	-0.0677
CCTTGAAC	-0.0418
AAGGTTTA	-0.198
GTGAGAAC	-0.144
ATCGATCG	-0.0605
ACGTGACA	-0.225
CTTTACCA	-0.185
CATCAACC	0.0414
GCTCAGGA	-0.141
AAATGTAC	-0.183
CAAGAGTG	-0.206
GCTCGGAC	0.188
GCGGGCCA	0.287
GAGTTGGA	-0.146
AGCTAGAT	-0.296
GGCGTACA	0.147
AGACGCTA	0.16
ACTTAGAC	-0.18

Sample 4
Target: CDC34 UBC core domain (UniProt P49427)
Technique: yeast two-hybrid
Medium: yeast
Notes: mostly zero background
Reference: not given
Reading: higher = stronger interaction
B1: CUL9 RING domain (UniProt Q8IWT3); chain AQAVPVRPDHCPVCVSPLGCDDDLPSLCCMHYCCKSCWNEYLTTRIEQNLVLNCTCPIADCPAQPTGAFIR
B2: TRIM69 RING domain (UniProt Q86WT6); chain VIQDITMELHCPLCNDWFRDPLMLSCGHNFCEACIQDFWRLQAKETFCPECKMLCQYNNCTF
B3: PHF21A RING domain (UniProt Q96BD5); chain SPTSTDGDIHEDFCSVCRKSGQLLMCDTCSRVYHLDCLDPPLKTIPKGMWICPRCQDQMLKKEEAIPW
B4: RC3H2 RING domain (UniProt Q9HBD1); chain QAAQWTEFLSCPICYNEFDENVHKPISLGCSHTVCKTCLNKLHRKACPFDQTAINTDIDVL
B5: MID1 RING domain (UniProt O15344); chain METLESELTCPICLELFEDPLLLPCAHSLCFNCAHRILVSHCATNESVESITAFQCPTCRHVITLSQRGL
Residues (chain): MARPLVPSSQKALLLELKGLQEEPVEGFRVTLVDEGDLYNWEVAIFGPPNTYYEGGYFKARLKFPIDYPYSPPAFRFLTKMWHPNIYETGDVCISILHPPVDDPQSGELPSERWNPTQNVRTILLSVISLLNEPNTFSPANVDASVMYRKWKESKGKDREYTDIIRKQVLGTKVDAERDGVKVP
Molecule	lacZ reporter activity
DDENSDNSNECVVCLSDLRDTLILPCRHLCLCTSCADTLRYQANNCPICRLPFRALLQIR (MGRN1 RING domain (UniProt O60291))	0
B1 (CUL9 RING domain)	0
B2 (TRIM69 RING domain)	0
VTLSLTLPITCHICLGKVRQPVICINNHVFCSICIDLWLKNNSQCPACRVPITPENPCK (OBI1 RING domain (UniProt Q5W0B1))	0
B3 (PHF21A RING domain)	0
RLTMMWEEVTCPICLDPFVEPVSIECGHSFCQECISQVGKGGGSVCPVCRQRFLLKNLRP (TRIM21 RING domain (UniProt P19474))	0
EDEVSDNSAECVVCLSDVRDTLILPCRHLCLCNTCADTLRYQANNCPICRLPFRALLQIR (RNF157 RING domain (UniProt Q96PX1))	0
QHHELTSLFECPVCFDYVLPPILQCQAGHLVCNQCRQKLSCCPTCRGALTPSIRNL (SIAH2 RING domain (UniProt O43255))	0
B4 (RC3H2 RING domain)	0
PEELQAMDNVCIICREEMVTGAKRLPCNHIFHTSCLRSWFQRQQTCPTCRMDVLRASLPA (SYVN1 RING domain (UniProt Q86TM6))	0
KTLSRFGIQPCSICLGDAKDPVCLPCDHVHCLRCLRAWFASEQMICPYCLTALPDEFSPA (RNF213 RING domain (UniProt Q63HN8))	0
B5 (MID1 RING domain)	0
QLRRLQEERTCKVCMDKEVSIVFIPCGHLVVCKDCAPSLRKCPICRSTIKGTVRTF (BIRC3 RING domain (UniProt Q13489))	0

A few entries again (sample 3):
Sequence	E-score
CTTTCGGC	0.00564
TCTTGTAA	-0.158
ACACTTGC	-0.00196
AGCGGCCG	0.454
ACAGTCTG	-0.179
CTTCACCA	-0.0677
CCTTGAAC	-0.0418
AAGGTTTA	-0.198
GTGAGAAC	-0.144
